Assay results from different studies.
Lines come from different studies, so protocols differ. ± marks the error that the study gave.

| Structure (SMILES) | assay | test system | setting | fraction unbound |
| --- | --- | --- | --- | --- |
| CCNCC#CCNc1ccnc2cc(Cl)ccc12 | equilibrium dialysis | CD-1 mouse plasma | 1 µM, 5 h, pH 7.4 | 0.155 |
| CO[C@H]1/C=C/O[C@@]2(C)Oc3c(C)c(O)c4c(c3C2=O)C2=NC3(CCN(CC(C)C)CC3)NC2=C(NC(=O)/C(C)=C\C=C\[C@H](C)[C@H](O)[C@@H](C)[C@@H](O)[C@@H](C)[C@H](OC(=O)c2cccc(F)c2)[C@@H]1C)C4=O | – | plasma | – | 0.02% |
| COc1ccc2c(c1OCc1ccccc1)C[C@@H](C(=O)O)N(c1nc3ccc(C#N)cc3o1)C2 | equilibrium dialysis | human plasma | 1 µM, 6 h, pH 7.4 | < 0.001 |
| O=C(Cc1ccccc1)Nc1nc2ccccc2n1Cc1ccccc1 | ultrafiltration | mouse plasma | 30 min, 37 °C | 41.3% |
| CCNCCOc1c(I)cc(C(=O)c2c(CCC(C)O)oc3ccccc23)cc1I (stereo not shown) | ultracentrifugation | human plasma | 2 h | 0.018 ± 0.003 |
| COC1C=COC2(C)Oc3c(C)c(O)c4c(c3C2=O)C2=NC3(CCN(CC(C)C)CC3)NC2=C(NC(=O)C(C)=CC=CC(C)C(O)C(C)C(O)C(C)C(OC(=O)Nc2cnccn2)C1C)C4=O (stereo not shown) | – | human plasma | – | 0.056 |
| NC(=O)c1c(F)ccc(OCc2nc3cc(Cl)cnc3s2)c1F | equilibrium dialysis | mouse plasma | 10 µM | 0.146 |
| COC1C=COC2(C)Oc3c(C)c(O)c4c(c3C2=O)C2=NC3(CCN(CC(C)C)CC3)NC2=C(NC(=O)C(C)=CC=CC(C)C(O)C(C)C(O)C(C)C(OC(=O)c2cncnc2)C1C)C4=O (stereo not shown) | – | caseum | – | 0.0118 |
| CCCCc1oc2ccccc2c1C(=O)c1cc(I)c(OCCN)c(I)c1 | ultracentrifugation | human plasma | 2 h | 0.042 ± 0.004 |
| COC1C=COC2(C)Oc3c(C)c(O)c4c(c3C2=O)C2=NC3(CCN(CC(C)C)CC3)NC2=C(NC(=O)C(C)=CC=CC(C)C(O)C(C)C(O)C(C)C(OC(=O)Nc2cccnn2)C1C)C4=O (stereo not shown) | – | caseum | – | 0.0096 |
| CC(NC(=O)OC1OC(C(=O)O)C(O)C(O)C1O)c1cc(Cl)ccc1Cn1c(=S)[nH]c(=O)c2[nH]ccc21 (stereo not shown) | equilibrium dialysis | human plasma | 10 µM, 16 h, 37 °C | 0.185 ± 0.014% |
| COc1ccccc1NC(=O)OC1C(C)C(OC)C=COC2(C)Oc3c(C)c(O)c4c(c3C2=O)C2=NC3(CCN(CC(C)C)CC3)NC2=C(NC(=O)C(C)=CC=CC(C)C(O)C(C)C(O)C1C)C4=O (stereo not shown) | rapid equilibrium dialysis | mouse plasma | – | 0.001 |
| CSc1cc(C)[nH]c(=O)c1CN1CCc2c(Cl)c3c(c(C)c2C1=O)OC(C)(C1CCC(N(C)C)CC1)O3 (stereo not shown) | – | plasma | – | 0.034 |
| O=C(N[C@@H](Cc1coc2ccccc12)B(O)O)[C@@H]1C[C@H]2CC[C@@H]1O2 | – | human plasma | – | 0.027 |
| CCCCc1oc2ccccc2c1C(=O)c1cc(I)c(O)c(I)c1 | ultracentrifugation | human liver microsomes 0.25 mg/mL protein | 2 h, pH 7.4 | 0.05 ± 0.02 |
| CC(C)Cn1c(SCC(=O)N2CCc3ccccc3C2)nc2cc(Cl)ccc2c1=O | equilibrium dialysis | rat plasma | – | 0.001 |
| COC1C=COC2(C)Oc3c(C)c(O)c4c(c3C2=O)C2=NC3(CCN(CC(C)C)CC3)NC2=C(NC(=O)C(C)=CC=CC(C)C(O)C(C)C(O)C(C)C(OC(=O)Nc2cscn2)C1C)C4=O (stereo not shown) | – | caseum | – | 0.0017 |
| CC(=O)c1cnc(N)nc1N1CC[C@H]1c1nn2ccc(Cl)c2c(=O)n1-c1ccccc1 | equilibrium dialysis | human plasma | 0.5-25 µM | 0.059 to 0.175 |
| CCN(CC)CC#CCNc1ccnc2cc(Cl)ccc12 | equilibrium dialysis | CD-1 mouse plasma | 1 µM, 5 h, pH 7.4 | 0.236 |
| Cc1ccc(O)c2c3c(nn12)CCC(C)(NC(=O)c1ccc(-n2cnc4cc(C(=O)O)ccc42)cc1Cl)C3 (stereo not shown) | equilibrium dialysis | human plasma | – | 0.0002 |
| CCCCc1oc2ccccc2c1C(=O)c1cc(I)c(OCCNCC)c(I)c1 | ultracentrifugation | human plasma | 2 h | 0.02 ± 0.004 |
| COC1C=COC2(C)Oc3c(C)c(O)c4c(c3C2=O)C2=NC3(CCN(CC(C)C)CC3)NC2=C(NC(=O)C(C)=CC=CC(C)C(O)C(C)C(O)C(C)C(OC(=O)c2cccnc2)C1C)C4=O (stereo not shown) | – | caseum | – | 0.0039 |

A few entries again:
| Structure (SMILES) | assay | test system | setting | fraction unbound |
| --- | --- | --- | --- | --- |
| CCCCc1oc2ccccc2c1C(=O)c1cc(I)c(OCCNCC)c(I)c1 | ultracentrifugation | human plasma | 2 h | 0.02 ± 0.004 |
| CCCCc1oc2ccccc2c1C(=O)c1cc(I)c(O)c(I)c1 | ultracentrifugation | human liver microsomes 0.25 mg/mL protein | 2 h, pH 7.4 | 0.05 ± 0.02 |
